Measurements gathered from unrelated publications.
Each numbered part is a random draw from the data of one study; scales do not carry over between parts.

Block 1 — method: RNA Bind-n-Seq; molecule type: RNA; medium: in vitro; concentration: 365 nM; relative to: no-protein control; direction: higher = stronger binding; measurement: RBNS enrichment (R)
Target: RNA binding protein fox-1 homolog 2, RRM domain, GST-SBP tag (RBFOX2, Homo sapiens, UniProt O43251-10, residues 100-194)
Notes: natural RNA segment, single round, ends assumed
All sequences stand within: GGGAGUUCUACAGUCCGACGAUC … UGGAAUUCUCGGGUGCCAA
Residues (chain): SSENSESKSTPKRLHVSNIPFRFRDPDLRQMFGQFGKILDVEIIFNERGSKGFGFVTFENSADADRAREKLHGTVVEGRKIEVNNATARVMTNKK
AAAGGGUGGCAUUUGAUUAAGUGACCAGGGUUCUUUGGAGUGAGUAGGAACAGCAUUUCUUACAACCGCCCCAGGACCUGAUUUGGCAAGACUGACUAGCUCUCUUUAGC: 0.38
CUCAAAGUGUGGCCAACUCCCAUUUACUUAGAGGCUGAUUAUCUAGUUUUGUAGUUCCUCAGGCCUCUAAUUUAUUUUUUGCUUUCUGCUUUAUUGAUCUUUUGCAUGUC: 18.1
GCACCCCCAGAAUGACCUGGCCGCAGUGAGGCGGAUUGAGAAGGAGCUCCCAGGAGGGGCUUCUGGGCAGACUCUGGUCAAGAAGCAUCGUGUCUGGCGUUGUGGGGAUG: 0.903
UUGUCUCUCUCAUUUCAGAAACGGACUUUCUCAUCAUGCUUUCCUAUGGUGGGUAUGAGGGGCCAGCUGAUACCAACCAACUGGCCUGUAUCUAUCUAUCUGGAUUUGAC: 0.222
AAUGCAUAACUCAUUGUUGUCCUAGAUAUUUUGAUAUUUACCUUUAUGUUGAAUGCUAUUAAAUGUUUUCCUGUGUCAAAGUAAAAUAUUGUUAAUAAACCUAACAAUGA: 1.63
AAUGCAGGGAAUCCGAGCAGAACAAUCGGUUAGUGAAUUGAAUGGAAAUAAAUGCUUUAGUUAUAAAUGACCCCUGUACUCUGUAAGUUCCAAGAAAAAGAUCCUGGCAC: 0.677
ACCUCACCUUUAGUGCUUUCUUUAAAGAAGCUGAGGGGUGAAGUUUGCUUACUGAUGUAUCUAUUUGUACAGAUAGUGGAGAGCUAGUUGCUAAUAAUGUCUUGUUUGGG: 0.635
CCACCGGCUCUGUCUUGGUCAGUGUUACCACUGCCAGCACUCAGGCUGUGGCAGAUGCCAGCAGCUCUUACCAUCAGUCAGAGUCUUCAGGGUGUCAAGCUGUUUUCAUU: 0.321
UGACAGGCUCCUUAGUCCUCGACACCAAGCUAGUAUGCGUUACCCACCUCCCAUCUGCUGCCCGGAAGGCACUGAGCAGACAGCUUCAGUAUUCAGCGAGCACGCGAACC: 1.06
UCAAAAUGUUUAGUAUAAGAACACUUAGUCUACAUGCUGGGGUGCCUAGCUUACACAGAGCCUGGGUUCAGUCCUUCACACUGUAUAAACUGGGCGAGACAGAGCAUGUU: 0.669
ACAUUAAUUGCAAGGAGCAUAACGUACAGGCUGUAUGUACAAUCCUGGGCAUUGACUCUGUGACAUUUCUAGCAUAUCCAAGGCACCACCAGUGAUUUCUCCUGUUUCUU: 0.804
CUCUGUUCUCCCUGGGAAAGGUCAUCAUCUCUGUUCAGAUGGGGAAGUUGAGGCCCAGAGAAUUUAAAGCACAUGUUCAUUUCUGUUGUCAUGGAUACAAAGCUAGGUUU: 0.44

Block 2 — method: RNA Bind-n-Seq; molecule type: RNA; medium: in vitro; concentration: not given; relative to: input RNA pool; direction: higher = stronger binding; measurement: bound/input enrichment
Target: RING finger protein unkempt homolog, zinc fingers 1-6, GST-SBP tag (UNK, Homo sapiens, UniProt Q9C0B0, residues 30-357)
UniProt Q9C0B0, sequence (30-357, looked up): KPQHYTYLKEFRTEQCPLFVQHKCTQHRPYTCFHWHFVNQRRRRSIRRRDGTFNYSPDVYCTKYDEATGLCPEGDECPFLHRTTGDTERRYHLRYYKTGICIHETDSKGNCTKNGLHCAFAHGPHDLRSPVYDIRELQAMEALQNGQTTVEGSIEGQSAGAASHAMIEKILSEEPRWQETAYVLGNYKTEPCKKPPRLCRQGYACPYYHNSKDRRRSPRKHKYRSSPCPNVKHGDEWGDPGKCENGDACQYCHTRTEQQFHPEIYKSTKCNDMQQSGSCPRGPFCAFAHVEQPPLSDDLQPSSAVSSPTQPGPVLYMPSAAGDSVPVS
Notes: RNA with constant flanks, human and mouse sites, ends assumed
All sequences stand within: GGGAGUUCUACAGUCCGACGAUC … CAACAGAGGAUUGAGCAUCA
UAGUGGAUAAGUGGAAACUGAGAUGUGUCCGUUCCUCCCGAGGCACUAGGAUGAUGGCGGGCUGUCAUAAUCAGGAAGCCUUCUGGUUACGGAAUUGCUUUUGCACCUAAUUUUAAGGAC: 0.165 ratio
GCUCACUUCGACCUUGCCUUGGCACGGUCUGCUAAACUACGAAACCCAAAAAAUGACCUCCUAGUAUUGCAUCUCUCUGACCUGAUUCGAAUGGCAUUCAUGGCUGCAACUGAUCAUAGC: 0.196 ratio
AAUUGGAAACCCUUUGUAUAUGGCGGCCUUGCCUCUAUCGUGGCUGAGUUUGGGACUUUCCCUGUGGACCUUACCAAAACACGACUUCAGGUUCAAGGCCAAAGCAUUGAUGCCCGUUUC: 0.107 ratio
UGCUCGUUUGCUUCUUCCAUCCUUUCUUCUGAGGGAGGGGUCCUGUUGUAGUGUGAAUUCUAUAGUCUCGCUUGUCCUUGAAUUUAUGGAAACCCUUCAUUUCAGCUUCUCUAGUGUUGG: 0.681 ratio
ACUGGAGGGGCAGCCUCUGUGAAGCAGCACCAUUCAAGUGCCCACAACAAAGACAUUGCUUUAGGGGUAUUUGAUGUGGUGGUGACAGACCCCUCAUGCCCAGCCUCGGUGCUCAAGUGU: 0.102 ratio
CCUCAGGCUGUGCAAAGGACACUGAGAGCCUCUUCCACAUAGAAAUACUCUGCUCUCGUAGCCUCUGGAAAGGCCCUGCAGCCCGACAUUGCUGUAGAGCUGGAGGAUCCGUGAGAUGAG: 0.301 ratio
AGGAGUGCACUUUUGUUUUGUUUUGUUCUUUUUGGAACUGUGCCUGGGUUGGAGGUCUGGACAGGGAGCCCAGUCCCGGGCCCCAUAGUGGUGCGGGCACUGGACCCCCGGGCCCCACGG: 0.221 ratio
UCAGGCUUAUUGAUGAUGCUUUUUGCAAAUGUUGAAUCAUGGUUCUGUUUCUAAGUUGGAUCUUUUUUGUUUUCUCCUUGCCACCCUAAUUUGACAUCAAAAUUCUCUCUUGUGCAUUGG: 0.163 ratio
UACAUGGGCUCACAGAAGCAAUUUAAAAUUACCAAACUCUCACCAGCAAUGGGUUGUAAAUUUAGAUUAUCAGCCAAAAAUGACUAUGGUGUAAGUGAUUUUAGUGAAGAGGUCCUGUAC: 0.15 ratio
GAUGUUAGGGAUGUGGUUGGGCGACGUCUAGAUCCCAGAGAAGGCCCUGGAAGGCCUCCAUUAGAUGCUAGGGAUCAUUUUGGAAGACCUCCUGUGGACAUGAGGGAGAAUCUUGUGAGG: 0.743 ratio
CAGACCAGGGUGUGCUGGGAGUCCAGGACUCUCGGGGUUUAUGUCAAUCAGUGCAAUUGUCUGUAUUUCUCAGUGGGGCCAGGUUGGGAAGCAACAGGCCAGGUGGUGAGUUCUCAGAGG: 0.106 ratio

Block 3 — method: protein binding microarray; molecule type: double-stranded DNA, one strand shown; medium: in vitro; concentration: not given; relative to: not given; direction: higher = stronger binding; measurement: E-score
Target: Histone acetyltransferase KAT6A, winged helix 1, GST fusion (KAT6A, Homo sapiens, UniProt Q92794, residues 1-85)
Notes: 8-mer, flanks averaged, mean of 2 arrays, mostly near background
Construct (chain): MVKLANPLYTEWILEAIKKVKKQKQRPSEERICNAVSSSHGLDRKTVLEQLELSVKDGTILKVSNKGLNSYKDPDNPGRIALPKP
AGCTCAGG: -0.108
AAAAGGCA: -0.17
CGTTTCAG: 0.0504
ATCAAGGA: -0.123
ACTTTGAC: -0.147
GTTCGGTA: 0.0885
CAATCAGA: -0.182
ACCATCTA: -0.195
AGGACAGA: -0.235
ATTTTACC: -0.042
AATCTAGT: -0.193
AACACCGT: 0.32
ACACTTAT: -0.171
AGAGGCTA: -0.143
GATCCGGC: 0.18
CACCACGC: 0.106
ATCAGAAT: -0.243
GTGTAAAC: -0.161
AAAACATC: -0.162
AAAACCCG: 0.265
TGGGGGAA: -0.0795

Block 4 — method: RNA Bind-n-Seq; molecule type: RNA; medium: in vitro; concentration: 200 nM; notes: whole 134-nt RNA, ends assumed; with: 150 mM LiCl; relative to: input library; direction: higher = stronger binding; measurement: log2 enrichment; each molecule: 7-deaza-guanosine replaces G
Target: Ras GTPase-activating protein-binding protein 1, full length (G3BP1, Homo sapiens, UniProt Q13283)
UniProt Q13283, sequence (whole entry, looked up): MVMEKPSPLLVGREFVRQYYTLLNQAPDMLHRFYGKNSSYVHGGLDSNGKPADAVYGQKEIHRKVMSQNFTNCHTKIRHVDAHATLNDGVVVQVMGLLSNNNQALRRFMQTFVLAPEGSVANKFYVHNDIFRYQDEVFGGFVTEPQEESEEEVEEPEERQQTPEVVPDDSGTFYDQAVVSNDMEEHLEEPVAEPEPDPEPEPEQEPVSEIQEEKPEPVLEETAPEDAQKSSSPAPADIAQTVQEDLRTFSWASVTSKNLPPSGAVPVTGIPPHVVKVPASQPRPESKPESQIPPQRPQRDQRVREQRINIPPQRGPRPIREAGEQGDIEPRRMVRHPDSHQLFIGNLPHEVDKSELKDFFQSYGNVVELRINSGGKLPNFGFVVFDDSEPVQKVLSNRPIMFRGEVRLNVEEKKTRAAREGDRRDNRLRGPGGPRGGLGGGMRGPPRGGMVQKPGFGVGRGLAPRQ
All sequences stand within: GGGAGUUCUACAGUCCGACGAUC … UGGAAUUCUCGGGUGUCAAGG
UCAAGUCCUGUGCUACACAUCGUAUGUACCGAAUCGGGGCCCGGCCCGGCCCGGAAAGUAUUAUGUUACGCCGUUCGGAUCUGCACUUCC: -0.522
UCCUGUGCUACACAUCGUAUGUACCGAAUCGGGGUUUUUGGGGAGGGGUUUUUUUGGGGAAAGUAUUAUGUUACGCCGUUCGGAUCUGCA: 0.808
CAAGUCCUGUGCUACACAUCGUAUGUACCGAAUCGGGGUUUGGUUUGGGUUUGGGAAAGUAUUAUGUUACGCCGUUCGGAUCUGCACUUC: -0.614
CAAGUCCUGUGCUACACAUCGUAUGUACCGAAUCGGGUGGGUUUUUGGGAAAGGGAAAGUAUUAUGUUACGCCGUUCGGAUCUGCACUUC: -0.664
CCUCAAGUCCUGUGCUACACAUCGUAUGUACCGAAUCGGUUGGUUGGGUUGGGAAAGUAUUAUGUUACGCCGUUCGGAUCUGCACUUCCA: 0.543
UGGGAGGUGGAUUUUGUUUAUUUUUUUAGCUCAUUUCCAGGGGUGGGAAUUUUUUUUUUAUAUGUGUCAUGAAUAAAGUUGUUUUUGAAA: -0.0112
UGGGGUCUGCGUACGCCUGGAGUCCUUCCCCGCUGUGCUCAGCAUGGACCCUAUCCGGAGCUUCUGCGGGAAGCUGCGGUCUCUGGCCAG: -0.678
CACAGACAACACGCACCCACACAGACACAGAGGGAAGGGGUUGGGAUGGGGACAGGGUAAACAGCAGGGCGGGGUAGGACCCCAGCCCCU: -0.431
CAAGUCCUGUGCUACACAUCGUAUGUACCGAAUCGGGGCCCGGGCCCGGCCCGGGAAAGUAUUAUGUUACGCCGUUCGGAUCUGCACUUC: -0.644
UCAGUGUCUUACCCUGAAGAGAAAGUUGUAGGUUGGCUGUUGAAAUUCAUUCCUUAGAUAUGAUCAGUUUGAUUGCCCGGCUUUAUUGCC: -1.38
CUGUGCUACACAUCGUAUGUACCGAAUCGGUUUUUUUGGUUUUUUUGGGGUUUUUUUGGGGAAAGUAUUAUGUUACGCCGUUCGGAUCUG: 1.22

Some of these lines once more (block 3):
ACACTTAT: -0.171
AGAGGCTA: -0.143
GATCCGGC: 0.18
